{"data": "Measurements gathered from unrelated publications", "note": "Parts stem from different laboratories: compare values within a part only. Substitutions count along the parent as printed."}
{"data": "Study 1", "target": "Ras GTPase-activating protein-binding protein 1, C-terminal RGG region (G3BP1, Homo sapiens, UniProt Q13283)", "method": "RNA Bind-n-Seq", "molecule type": "RNA", "medium": "in vitro", "tested at": "1 µM", "setting": "whole 134-nt RNA, ends assumed", "together with": "150 mM KCl", "relative to": "input library", "reading": "higher = stronger binding", "all sequences stand within": "GGGAGUUCUACAGUCCGACGAUC … UGGAAUUCUCGGGUGUCAAGG", "sequence of UniProt Q13283 (whole entry, looked up)": "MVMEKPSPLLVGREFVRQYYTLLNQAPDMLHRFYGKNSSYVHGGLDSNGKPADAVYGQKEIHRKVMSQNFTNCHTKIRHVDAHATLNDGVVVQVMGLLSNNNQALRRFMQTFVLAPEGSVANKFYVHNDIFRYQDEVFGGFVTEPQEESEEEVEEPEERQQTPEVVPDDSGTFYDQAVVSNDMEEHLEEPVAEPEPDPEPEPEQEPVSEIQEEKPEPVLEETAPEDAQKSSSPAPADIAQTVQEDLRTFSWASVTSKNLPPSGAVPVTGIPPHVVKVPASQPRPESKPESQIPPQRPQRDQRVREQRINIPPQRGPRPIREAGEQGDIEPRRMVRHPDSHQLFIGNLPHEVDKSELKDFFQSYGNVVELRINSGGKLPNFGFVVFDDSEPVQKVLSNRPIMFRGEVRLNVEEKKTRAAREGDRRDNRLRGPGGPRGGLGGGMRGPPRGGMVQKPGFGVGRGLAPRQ"}
{"Strand": "UCAAGUCCUGUGCUACACAUCGUAUGUACCGAAUCGGUUUGGGUUUGGGUUUGGGAAAGUAUUAUGUUACGCCGUUCGGAUCUGCACUUC", "log2 enrichment": -1.05}
{"Strand": "AAGUCCUGUGCUACACAUCGUAUGUACCGAAUCGGGAGGGUUUGGGUUUUUUUGGGAAAGUAUUAUGUUACGCCGUUCGGAUCUGCACUU", "log2 enrichment": 0.517}
{"Strand": "GCAGGAAGUAAAAACAAAUGGAAAUGCUUCGGAGAGUGGCAGGGGUGGGGGUUGCUAAGGAAAGGGUGGGAUGGGAGUGGGUAAAGAGUU", "log2 enrichment": 1.23}
{"Strand": "UUAUCACCAGGACUGCCAUGUUCCCAGGGCUCCAGCCCCUGGAGAGGGAGAGGGCACAUCCUGGGUAUGCCGCCAGUGUGUCUUUGCGAU", "log2 enrichment": -1.15}
{"Strand": "ACCAUGCAGGUGGGCAUCUUCGGGAAGUGGGGCAAGGGGGGGAUAGGGAGGGGGGUAACACUUUGGGAACAGGUGGUCCCAGGUCGUUUC", "log2 enrichment": -0.956}
{"Strand": "CUCAAGUCCUGUGCUACACAUCGUAUGUACCGAAUCGGGGAAGGAAGGGGAAGGAAAGUAUUAUGUUACGCCGUUCGGAUCUGCACUUCC", "log2 enrichment": -1.12}
{"Strand": "CUGUGCUACACAUCGUAUGUACCGAAUCGGGAAAAAAAGGAAAAAAAGGGGAAAAAAAGGGGAAAGUAUUAUGUUACGCCGUUCGGAUCU", "log2 enrichment": -1.02}
{"Strand": "UGGGAGGUGGAUUUUGUUUAUUUUUUUAGCUCAUUUCCAGGAGUGGGAAUUUUUUUUUAAUAUGUGUCAUGAAUAAAGUUGUUUUUGAAA", "log2 enrichment": 3.96}
{"data": "Study 2", "target": "JUN, bZIP domain (human)", "method": "DHFR protein complementation", "medium": "yeast", "setting": "single substitutions, most at no-binding floor", "relative to": "wild-type JUN-FOS pair", "reading": "higher = stronger binding", "parent": "JUN, bZIP domain (human); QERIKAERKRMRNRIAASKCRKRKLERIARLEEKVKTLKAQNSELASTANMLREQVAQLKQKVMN; partner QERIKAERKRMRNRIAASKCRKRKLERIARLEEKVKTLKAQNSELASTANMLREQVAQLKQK"}
{"Substitution": "T48F", "binding fitness": "-0.703 natural log"}
{"Substitution": "V35T", "binding fitness": "-1.16 natural log"}
{"Substitution": "A49N", "binding fitness": "-0.0391 natural log"}
{"Substitution": "Q41D", "binding fitness": "-0.661 natural log"}
{"Substitution": "M51N", "binding fitness": "-0.166 natural log"}
{"Substitution": "T48R", "binding fitness": "-0.446 natural log"}
{"Substitution": "V56D", "binding fitness": "-0.951 natural log"}
{"Substitution": "K36G", "binding fitness": "-0.652 natural log"}
{"data": "Other studies, line by line", "P1": "viral docking peptide; TSVRRALFTGGSD; partner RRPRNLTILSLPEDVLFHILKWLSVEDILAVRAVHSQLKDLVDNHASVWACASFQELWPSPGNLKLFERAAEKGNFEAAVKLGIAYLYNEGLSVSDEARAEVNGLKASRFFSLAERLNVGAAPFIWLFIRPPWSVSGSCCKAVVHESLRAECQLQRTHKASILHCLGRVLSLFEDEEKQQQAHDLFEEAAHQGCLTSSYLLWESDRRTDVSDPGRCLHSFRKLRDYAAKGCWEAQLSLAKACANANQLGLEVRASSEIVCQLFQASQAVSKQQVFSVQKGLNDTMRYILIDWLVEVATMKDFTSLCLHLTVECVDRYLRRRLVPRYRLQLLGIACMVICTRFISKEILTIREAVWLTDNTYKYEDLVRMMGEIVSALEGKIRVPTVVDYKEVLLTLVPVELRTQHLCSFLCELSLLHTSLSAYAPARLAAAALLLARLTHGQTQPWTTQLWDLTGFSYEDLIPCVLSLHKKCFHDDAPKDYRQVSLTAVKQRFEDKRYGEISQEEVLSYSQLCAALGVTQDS"}
{"Molecule": "FASTKD3 (Homo sapiens, UniProt Q14CZ7)", "tested on": "FASTKD1 (Homo sapiens, UniProt Q53R41)", "assay": "cross-linking MS", "setting": "hits only", "endpoint": "interaction screen", "result": "cross-linked"}
{"Molecule": "P1 G11Y", "tested on": "CCNF, cyclin fold, Cln2 fusion (human)", "assay": "yeast growth competition, sequencing", "system": "yeast", "setting": "strong parent motif", "how to read": "relative to: not given, higher = stronger binding", "endpoint": "normalised enrichment score", "result": 8.26}
{"Molecule": "MTA2 (Homo sapiens, UniProt O94776)", "tested on": "HDAC1 (Homo sapiens, UniProt Q13547)", "assay": "cross-linking MS", "system": "cell fractions", "setting": "together with: DSSO", "endpoint": "cross-linked residues", "result": "K71 to K220"}
{"Molecule": "P4HA2 (Homo sapiens, UniProt O15460)", "tested on": "P4HB (Homo sapiens, UniProt P07237)", "assay": "cross-linking MS", "system": "cell fractions", "setting": "together with: DMTMM", "endpoint": "cross-linked residues", "result": "K328 to E303"}
{"Molecule": "FARP2 (Homo sapiens, UniProt O94887)", "tested on": "PRPF19 (Homo sapiens, UniProt Q9UMS4)", "assay": "cross-linking MS", "system": "cell fractions", "setting": "together with: DMTMM", "endpoint": "cross-linked residues", "result": "E547 to K64"}
{"note": "Repeated from above (study 2):"}
{"Substitution": "A49N", "binding fitness": "-0.0391 natural log"}
{"Substitution": "Q41D", "binding fitness": "-0.661 natural log"}
